{"data": "Measured values gathered from unrelated publications", "note": "Every numbered part comes from another study and shows a few of its results, in no order. Substitutions count along the parent as printed."}
{"data": "Block 1", "target": "Sal-like protein 4, full length isoform B (SALL4, Homo sapiens, UniProt Q9UJQ4-2, residues 1-616)", "method": "universal PBM", "form": "double-stranded DNA, one strand shown", "medium": "in vitro", "tested at": "not given", "notes": "8-mer, flanks averaged, mean of replicates", "reading": "higher = stronger binding", "Target sequence (chain)": "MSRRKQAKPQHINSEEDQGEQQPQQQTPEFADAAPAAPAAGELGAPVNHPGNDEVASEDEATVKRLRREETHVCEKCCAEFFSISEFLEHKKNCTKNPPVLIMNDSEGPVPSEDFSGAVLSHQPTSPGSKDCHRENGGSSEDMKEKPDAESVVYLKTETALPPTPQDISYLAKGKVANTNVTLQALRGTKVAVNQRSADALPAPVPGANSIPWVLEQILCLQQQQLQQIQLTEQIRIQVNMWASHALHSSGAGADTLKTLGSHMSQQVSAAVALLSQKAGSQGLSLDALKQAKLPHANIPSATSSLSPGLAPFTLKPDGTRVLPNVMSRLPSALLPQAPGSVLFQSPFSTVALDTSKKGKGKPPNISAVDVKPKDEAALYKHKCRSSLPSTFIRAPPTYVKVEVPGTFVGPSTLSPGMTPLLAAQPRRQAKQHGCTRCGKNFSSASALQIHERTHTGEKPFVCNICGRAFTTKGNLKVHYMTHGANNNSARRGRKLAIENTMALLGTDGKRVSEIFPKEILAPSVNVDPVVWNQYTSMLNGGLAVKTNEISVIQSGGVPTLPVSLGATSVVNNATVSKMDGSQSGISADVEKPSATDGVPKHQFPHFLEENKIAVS"}
{"Strand": "GAGACTAC", "E-score": -0.0874}
{"Strand": "GAAATCGA", "E-score": -0.0592}
{"Strand": "GCGCGCAA", "E-score": -0.132}
{"Strand": "GGTCCCTA", "E-score": -0.244}
{"Strand": "ACGCGGTA", "E-score": -0.169}
{"Strand": "CCACGACG", "E-score": -0.2}
{"Strand": "CGCTTGTA", "E-score": -0.0436}
{"Strand": "CAATTGGG", "E-score": -0.185}
{"Strand": "TAGCGATA", "E-score": 0.172}
{"Strand": "GCCGCAAA", "E-score": -0.126}
{"Strand": "GCCCCAGA", "E-score": -0.351}
{"Strand": "CGACGGAG", "E-score": -0.127}
{"Strand": "TCCGAACA", "E-score": 0.0497}
{"Strand": "GGAGAGCC", "E-score": -0.209}
{"Strand": "GGGGGCAA", "E-score": -0.128}
{"data": "Block 2", "target": "Histone acetyltransferase KAT6A, both winged helices, GST fusion (KAT6A, Homo sapiens, UniProt Q92794, residues 1-181)", "method": "protein binding microarray", "form": "double-stranded DNA, one strand shown", "medium": "in vitro", "tested at": "not given", "notes": "8-mer, flanks averaged, mean of 2 arrays, mostly near background", "reference": "not given", "reading": "higher = stronger binding", "Residues (chain)": "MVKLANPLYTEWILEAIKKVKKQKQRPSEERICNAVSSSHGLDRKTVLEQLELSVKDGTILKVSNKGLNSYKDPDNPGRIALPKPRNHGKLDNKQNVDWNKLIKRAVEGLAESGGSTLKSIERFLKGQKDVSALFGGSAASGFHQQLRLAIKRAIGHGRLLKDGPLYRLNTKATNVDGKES"}
{"Strand": "CAGTAGAG", "E-score": -0.246}
{"Strand": "ACGAGCCC", "E-score": -0.148}
{"Strand": "CCCACGGA", "E-score": 0.176}
{"Strand": "CGGCCTTC", "E-score": 0.255}
{"Strand": "AAGCTAAT", "E-score": -0.0755}
{"Strand": "ACTAACCG", "E-score": 0.112}
{"Strand": "CATGTTTA", "E-score": 0.0773}
{"Strand": "CCCGTATA", "E-score": 0.226}
{"Strand": "AGGGACGA", "E-score": 0.0299}
{"Strand": "AGGATCAG", "E-score": -0.181}
{"Strand": "CTAACTTA", "E-score": -0.0731}
{"data": "Block 3", "target": "CCND3, cyclin fold, Cln2 fusion (human)", "method": "yeast growth competition, sequencing", "medium": "yeast", "notes": "weak parent motif", "reference": "not given", "reading": "higher = stronger binding", "starting sequence": "PKN2 docking peptide (human); VSAVQKLDFSDTM"}
{"Substitution": "VSAYQKLDFSDTM [V4Y]", "normalised enrichment score": 0.0916}
{"Substitution": "VSAVQKADFSDTM [L7A]", "normalised enrichment score": 0.0428}
{"Substitution": "VSYVQKLDFSDTM [A3Y]", "normalised enrichment score": 0.112}
{"Substitution": "VSASQKLDFSDTM [V4S]", "normalised enrichment score": 0.0269}
{"Substitution": "LSAVQKLDFSDTM [V1L]", "normalised enrichment score": 0.118}
{"Substitution": "PSAVQKLDFSDTM [V1P]", "normalised enrichment score": 0.15}
{"Substitution": "VSAVRKLDFSDTM [Q5R]", "normalised enrichment score": 0.501}
{"Substitution": "VSAVQKLDFSQTM [D11Q]", "normalised enrichment score": 0.0624}
{"Substitution": "VSAVQKLKFSDTM [D8K]", "normalised enrichment score": 0.167}
{"data": "Single results of other studies"}
{"Substance": "PhoQ, residues 284 288 289 292 302 303 SCEHLI", "target": "PhoP, residues 12 14 15 18 19 LYHSL (Escherichia coli, UniProt P23836)", "assay": "Sort-seq, refers to: YFP reporter", "test system": "E. coli", "conditions": "PhoQ-PhoP variant library, with: 10 µM Mg2+", "how to read": "reference: high Mg2+ state, higher = stronger signaling", "endpoint": "fold induction", "result": 8.82}
{"note": "Some of these lines once more (block 3):"}
{"Substitution": "VSAVQKLKFSDTM [D8K]", "normalised enrichment score": 0.167}
{"Substitution": "LSAVQKLDFSDTM [V1L]", "normalised enrichment score": 0.118}
{"Substitution": "VSASQKLDFSDTM [V4S]", "normalised enrichment score": 0.0269}
{"Substitution": "VSYVQKLDFSDTM [A3Y]", "normalised enrichment score": 0.112}
